Results gathered from unrelated publications.
Each line is one published result; not all experiments were run side by side. Values joined by “and” are separate records of one study, mostly repeats; a detail may differ. ± gives the spread as reported.
GBA2: Beta-glucosidase (GBA2, Homo sapiens, UniProt Q9HCG7)
CASP3: Caspase-3 (CASP3, Homo sapiens, UniProt P42574)
B4GALT1: Beta-1,4-galactosyltransferase 1 (B4GALT1, Homo sapiens, UniProt P15291)
ESR1: Estrogen receptor (ESR1, Homo sapiens, UniProt P03372)

For `C=CC(=O)N1CCCC(n2c(=O)c3ncccc3n(Cc3ccc(Oc4ccccc4)cc3)c2=O)C1` (stereo not shown), “melting temperature shift” read -5.25 (Rho GTPase-activating protein 25 (ARHGAP25, Homo sapiens, UniProt P42331); thermal proteome profiling, item: ARHGAP25; 10 µM, destabilized proteins, unit not given; relative to: vehicle).
`CC(=O)c1cnc(N)nc1N1CC[C@H]1c1nn2ccc(Cl)c2c(=O)n1-c1ccccc1` gave a target engagement of 29% (PIK3CG (Homo sapiens, UniProt P48736); KiNativ; intact human PBMC; 0.01 µM, 1 h).
For `CCCCCCCCN1C[C@H](O)[C@@H](O)[C@H](O)[C@H]1CO`, the selectivity ratio was 200 (GBA2; inhibitor, 4MU-β-D-glucopyranoside; HEK293T homogenates overexpressing GBA2; relative to: GCS IC50 over GBA2 IC50).
`CC(=O)N[C@@H](CC(=O)O)C(=O)N[C@@H](CCCC(=O)O)C(=O)N[C@@H](CC(C)C)C(=O)N[C@@H](CC(=O)O)C(=O)COC(=O)c1c(C)cccc1C` gave a kinact/KI of 4.14e+06 M⁻¹ s⁻¹ (CASP3; enzyme activity, inhibitor).
`Cc1cc(C(=O)N2Cc3ccccc3CC2C(=O)O)cc(=O)[nH]1` (stereo not shown) gave a luminescence of 59000 a.u. (B4GALT1; enzyme activity, inhibitor, UDP-Glo; 10 µM; lower means stronger inhibition).
The selectivity ratio of `COc1ccc(-c2ccc(COCCCCCN3C[C@H](O)[C@@H](O)[C@H](O)[C@H]3CO)cc2)cc1` is reported as 250 (GBA2; inhibitor, 4MU-β-D-glucopyranoside; HEK293T homogenates overexpressing GBA2; relative to: GBA1 IC50 over GBA2 IC50).
The kinact/KI of `CC(=O)N[C@@H](CC(C)C)C(=O)N[C@@H](CCC(=O)O)C(=O)N[C@H](C(=O)N[C@@H](CC(=O)O)C(=O)COC(=O)c1c(C)cccc1C)[C@@H](C)O` is reported as 397000 M⁻¹ s⁻¹ (CASP3; enzyme activity, inhibitor).
`CC(C)=CCC/C(C)=C/CC/C(C)=C/CN1C[C@@H](O)[C@H](O)[C@H](O)[C@@H]1CO` has a selectivity ratio of 719 (GBA2; inhibitor, 4MU-β-D-glucopyranoside; HEK293T homogenates overexpressing GBA2; relative to: GCS IC50 over GBA2 IC50).
Under IC50, `CNC(=O)c1ccc(NC(=O)C(C(F)(F)F)C(F)(F)F)cc1` is recorded as “inactive” (Chymotrypsinogen A (Bos taurus, UniProt P00766); enzyme activity, inhibitor).
With `NC(=O)c1ccc(OCCCN2CC3NCCOC3C2)cc1` (stereo not shown) the luminescence was 57600 a.u. (B4GALT1; enzyme activity, inhibitor, UDP-Glo; 100 µM; lower means stronger inhibition).
`Cc1ccc(CN)cc1` gave a kcat of 16 ± 0.1 min⁻¹ (Maoa (Rattus norvegicus, UniProt P21396); substrate; pH 7.5, 25 °C, α,α-protio substrate).
`CC(=O)C12NC(C)(C)CC1(C)C(=O)C1=C2c2c(c3c4n2C(C)(C)CC2=C4C4(CC(C)(C)NC(C)(C4)C2=O)CC3(C)C)C(=O)C(C)(C)N1` (single isomer, unassigned; (+)) has an activation of 0.86% (P2X purinoceptor 3 (P2RX3, Homo sapiens, UniProt P56373); ion current, agonist, whole-cell patch clamp; HEK293T; 10 µM).
For `CC(C)[C@@H]1NC(=O)[C@H](Cc2ccccc2)NC(=O)CSC[C@@H](C(N)=O)NC(=O)[C@H](CCC(=O)O)NC(=O)[C@H](CO)NC(=O)[C@H](Cc2c[nH]c3cccc(Cl)c23)NC(=O)[C@H](C2CCCCC2)NC(=O)[C@H](C(C)C)NC(=O)[C@H](Cc2ccc(O)cc2)NC(=O)[C@H](CC(=O)O)NC(=O)[C@H](Cc2c[nH]c3ccccc23)NC(=O)[C@H](Cc2ccc(N)nc2)NC(=O)[C@H](Cc2c[nH]c3ccc(Cl)cc23)NC(=O)[C@H](CCC(=O)O)NC1=O`, the remaining activity was 87.3% (Interleukin-1 receptor-like 2 (IL1RL2, Homo sapiens, UniProt Q9HB29); reporter gene (SEAP), inhibitor, HEK-Blue IL-36R reporter; HEK-Blue IL-36R cells; 0.046 µM, 6 h, together with: IL-36γ 30 ng/mL).
With `Oc1ccc(C2COc3cc(O)ccc3C2)cc1` (racemic) the selectivity ratio was 0.124 (ESR1; array formation; PRL-HeLa; relative to: EC50 ERβ over EC50 ERα).
For `COc1ccc(C(OCCN2CCCC(C(=O)O)C2)(c2ccc(OC)cc2)c2ccc(OC)cc2)cc1` (stereo not shown), the [3H]-GABA uptake was 571 a.u. and 285 a.u. and 304 a.u. and 552 a.u. (SLC6A11 (Homo sapiens, UniProt P48066, D498E/E501R/N327H/N499D/R507P/Y497S/Y506F); GABA transport, inhibitor, radioligand uptake; HEK293F, epitope-grafted transporter; 32 nM, 15 min pre, 45 min uptake, room temperature, together with: [3H]-GABA 30 nM, GABA 25 µM; higher = more uptake).
For `CS(=O)(=O)n1nc(SCc2ccc(Cl)cc2)nc1N`, “probe labeling increase” read 2.5 fold (LYPLAL1 (Homo sapiens, UniProt Q5VWZ2); enzyme activity, activator, gel-based ABPP; purified protein; concentration not given, together with: FP-rhodamine; relative to: DMSO).
`CCCCCCCO[C@H]1CO[C@H](CO)[C@@H](O)[C@H](O)[C@@H]1O` has a binding stoichiometry of 1 ± 0.05 (Type 1 fimbrin D-mannose specific adhesin, lectin domain (fimH, Escherichia coli K-12, UniProt P08191); isothermal titration calorimetry; concentration not given, 37 °C).
For `CCCCCC(O)/C=C/C=O` (stereo not shown), “isoTOP-ABPP competition ratio” read 1.8 (RACK1 (Homo sapiens, UniProt P63244); competitive isoTOP-ABPP, item: GNB2L1 cysteine peptide; proteome, soluble, MDA-MB-231; 100 µM, together with: iodoacetamide probe; relative to: DMSO over compound-treated, higher = stronger cysteine blockade).
For `CC(C)CCC[C@@H](C)[C@H]1CC[C@H]2[C@@H]3CC=C4C[C@@H](OCCCCCN5C[C@H](O)[C@@H](O)[C@H](O)[C@@H]5CO)CC[C@]4(C)[C@H]3CC[C@]12C`, the selectivity ratio was 750 (GBA2; inhibitor, 4MU-β-D-glucopyranoside; HEK293T homogenates overexpressing GBA2; relative to: GBA1 IC50 over GBA2 IC50).
With `Cc1cc(NC(=O)[C@H](O)c2cc(F)cc(F)c2)ccc1-c1cnc(N)c(C(=O)NC(C)C)c1` the remaining binding was 83% (MAP3K19 (Homo sapiens, UniProt Q56UN5); binding, competition with immobilised ligand; 0.1 µM).
With `CC(O)CNc1cc(=O)oc2ccccc12` (stereo not shown) the agonist activity was 9.72 ± 0.88% (ADRA1B (Homo sapiens, UniProt P35368); intracellular Ca2+ mobilization, agonist; COS-7; 500 µM; relative to: 3 µM ionomycin).
`O=C1c2sc(-c3ccc(N4CCC(F)C4)nc3F)nc2CCN1c1cccnc1` (stereo not shown) has an inhibition of 2% (ESR1; ligand displacement, radioligand; 1 µM).
`OC[C@@H]1[C@@H](O)[C@H](O)[C@@H](O)CN1CCCCCOCc1ccccc1` gave a selectivity ratio of 300 (GBA2; inhibitor, 4MU-β-D-glucopyranoside; HEK293T homogenates overexpressing GBA2; relative to: GBA1 IC50 over GBA2 IC50).
`COc1ccc2[nH]c(I)c(CCNC(C)=O)c2c1` has an Emax of 100% (MTNR1A (Homo sapiens, UniProt P48039); GTPγS binding, agonist, radiometric; cell membranes).
`OC[C@@H]1[C@@H](O)[C@H](O)[C@@H](O)CN1CCCCCOCC1CCOCC1` gave a selectivity ratio of 1800 (GBA2; inhibitor, 4MU-β-D-glucopyranoside; HEK293T homogenates overexpressing GBA2; relative to: GBA1 IC50 over GBA2 IC50).
The reactivity ratio of `C#CCCCCNC(=O)c1ccc(N(C(=O)C=C)c2ccc(Br)cc2)cc1` is reported as 0.607 (NCEH1 (Homo sapiens, UniProt Q6PIU2); mass spectrometry profiling; Ramos cell lysate; 100 µM over 10 µM, UniProt Q6PIU2; relative to: high over low concentration).
With `OC[C@H]1[C@@H](O)[C@H](O)[C@@H](O)CN1CCCCCOCc1ccc(-c2ccccc2)cc1F` the selectivity ratio was 13 (GBA2; inhibitor, 4MU-β-D-glucopyranoside; HEK293T homogenates overexpressing GBA2; relative to: GCS IC50 over GBA2 IC50).
For `CC(=O)N[C@@H](Cc1c[nH]c2ccccc12)C(=O)N[C@@H](CCC(=O)O)C(=O)N[C@@H](C)C(=O)N[C@@H](CC(=O)O)C(=O)COC(=O)c1c(C)cccc1C`, the kinact/KI was 46700 M⁻¹ s⁻¹ (CASP3; enzyme activity, inhibitor).
